Experimental data pooled from the literature.
Every numbered part comes from another study and shows a few of its results, in no order. “And” joins repeats or separate records; there may be more than shown.

Study 1 — method: aptamer microarray, sandwich; form: DNA with 2'F-ANA; sample: in vitro; tested at: 200 nM; added: Cy3 exosite-II aptamer, 400 nM; reading: higher = stronger binding; sequence: GGTTGGTGTGGTTGG
Target: Prothrombin, mature alpha-thrombin (F2, Homo sapiens, UniProt P00734)
Setting: whole 15-mer aptamer, many near background
Modification | mean fluorescence intensity
2'F-ANA at 1 2 4 9 10 12 14 15 | 46.8 a.u.
2'F-ANA at 1 2 4 5 6 7 8 9 12 | 185 a.u.
2'F-ANA at 1 2 4 5 6 8 10 12 15 | 49.5 a.u.
2'F-ANA at 1 2 4 9 12 13 14 | 56.8 a.u.
2'F-ANA at 2 5 8 | 82.5 a.u.
2'F-ANA at 4 6 11 12 13 14 15 | 86.6 a.u.
2'F-ANA at 3 5 6 7 9 10 12 14 | 49.9 a.u.
2'F-ANA at 1 3 4 5 7 8 | 69.5 a.u.

Study 2 — method: universal PBM; form: double-stranded DNA, one strand shown; sample: in vitro; tested at: not given; reading: higher = stronger binding
Target: Sal-like protein 4, full length isoform B (SALL4, Homo sapiens, UniProt Q9UJQ4-2, residues 1-616)
Setting: 8-mer, flanks averaged, mean of replicates
Residues (chain): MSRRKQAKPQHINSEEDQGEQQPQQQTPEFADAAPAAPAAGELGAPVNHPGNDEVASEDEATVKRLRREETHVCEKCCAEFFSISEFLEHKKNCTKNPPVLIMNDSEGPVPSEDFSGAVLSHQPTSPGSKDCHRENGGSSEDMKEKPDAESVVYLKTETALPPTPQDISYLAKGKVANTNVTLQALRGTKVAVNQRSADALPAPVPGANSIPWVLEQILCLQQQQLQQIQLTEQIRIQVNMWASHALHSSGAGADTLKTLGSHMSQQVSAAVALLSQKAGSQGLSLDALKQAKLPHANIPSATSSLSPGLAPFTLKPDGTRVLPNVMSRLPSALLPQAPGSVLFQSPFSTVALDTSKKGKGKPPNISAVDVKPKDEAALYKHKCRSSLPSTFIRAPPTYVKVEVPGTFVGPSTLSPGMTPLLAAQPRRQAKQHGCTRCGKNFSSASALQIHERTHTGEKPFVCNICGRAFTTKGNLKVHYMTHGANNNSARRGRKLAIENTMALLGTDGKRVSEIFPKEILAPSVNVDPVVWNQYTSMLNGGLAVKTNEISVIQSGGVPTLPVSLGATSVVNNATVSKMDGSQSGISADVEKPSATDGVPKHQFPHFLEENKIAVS
Sequence | E-score
AGACACAA | 0.19
ATGAAGTC | 0.0014
ATACGCCC | -0.0942
CGCATCGA | -0.0387
GAGGGTAC | -0.244
CAGGCACA | -0.114
CTGTGCAC | -0.0546
CGCTACTA | 0.0187
TACGGCGA | -0.0822
TCTCTTAA | 0.17
ACGTTGCA | 0.00187
GCATGTCA | 0.0596

Study 3 — method: RNA Bind-n-Seq; form: RNA; sample: in vitro; tested at: 200 nM; setting: whole 134-nt RNA, ends assumed; added: 150 mM KCl; baseline: input library; reading: higher = stronger binding
Target: Fragile X messenger ribonucleoprotein 1, C-terminal low-complexity region (Fmr1, Mus musculus, UniProt P35922)
Sequence | log2 enrichment
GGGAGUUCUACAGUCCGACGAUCAAGUCCUGUGCUACACAUCGUAUGUACCGAAUCGGGGCCCCGGCCCCGGCCCCGGGGAAAGUAUUAUGUUACGCCGUUCGGAUCUGCACUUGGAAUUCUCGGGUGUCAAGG | -0.771
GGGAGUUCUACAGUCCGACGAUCUAACUUUAGAGGAGGAUCUGAUGGAUAUGGCAGUGGACGCGGAUUUGGGGAUGGCUAUAAUGGGUAUGGAGGAGGACCUGGAGGUGGCAAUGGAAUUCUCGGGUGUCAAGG | 0.136
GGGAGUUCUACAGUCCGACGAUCCAAGUCCUGUGCUACACAUCGUAUGUACCGAAUCGGGAAAGGGUUUUUGGGAGGGAAAGUAUUAUGUUACGCCGUUCGGAUCUGCACUUCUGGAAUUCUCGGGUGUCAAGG | 0.889
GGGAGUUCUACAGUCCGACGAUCCCUGUGCUACACAUCGUAUGUACCGAAUCGGGUUUUUGGGAAAAAAAGGGAAAAAAAGGGAAAGUAUUAUGUUACGCCGUUCGGAUCUGCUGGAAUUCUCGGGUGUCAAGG | -0.891
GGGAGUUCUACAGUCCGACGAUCCUGUGCUACACAUCGUAUGUACCGAAUCAAACCCCCCCAAAUUUUUUUAAAUUUUUUUAAAAAAGUAUUAUGUUACGCCGUUCGGAUCUGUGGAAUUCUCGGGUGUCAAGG | -0.468
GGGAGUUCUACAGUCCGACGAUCCAAGUCCUGUGCUACACAUCGUAUGUACCGAAUCGGCCCCGGCCCCGGGCCCCGGGAAAGUAUUAUGUUACGCCGUUCGGAUCUGCACUUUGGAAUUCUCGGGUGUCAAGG | -0.296
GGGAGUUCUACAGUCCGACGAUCUCCUGUGCUACACAUCGUAUGUACCGAAUCGGGCCCCCGGGGCCCCCGGGGCCCCCGGGGAAAGUAUUAUGUUACGCCGUUCGGAUCUGCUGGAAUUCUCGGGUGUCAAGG | -0.688

Mixed results
Substance | tested on | assay | test system | setting | how to read | endpoint | result
PhoQ, residues 284 288 289 292 302 303 ALVSVA | PhoP, residues 12 14 15 18 19 LWHSL (Escherichia coli, UniProt P23836) | Sort-seq, measured: YFP reporter | E. coli | PhoQ-PhoP variant library, added: 10 µM Mg2+ | baseline: high Mg2+ state, higher = stronger signaling | fold induction | 15.1 and 31.5
FBL (Homo sapiens, UniProt P22087) | NOP58 (Homo sapiens, UniProt Q9Y2X3) | cross-linking MS |  | hits only |  | interaction screen | cross-linked

For quick reference, copied from above (study 1):
Modification | mean fluorescence intensity
2'F-ANA at 1 2 4 5 6 7 8 9 12 | 185 a.u.
2'F-ANA at 1 2 4 5 6 8 10 12 15 | 49.5 a.u.
2'F-ANA at 1 2 4 9 12 13 14 | 56.8 a.u.
2'F-ANA at 2 5 8 | 82.5 a.u.
